Assay results collected from several papers.
Lines come from different studies, so protocols differ. ± marks the error that the study gave.
Cell line: Vero

| Structure (SMILES) | test | test system | setting | CC50 |
| --- | --- | --- | --- | --- |
| O=c1cnn([C@@H]2O[C@H](COCc3ccccc3)[C@@H](OCc3ccccc3)[C@H](OCc3ccccc3)[C@H]2I)c(=O)[nH]1 | MTT | DMEM with 10% FBS | 72 h | > 50 µM |
| CC[C@H](C)C[C@H](C)CCCCCCCCC(=O)N[C@H]1C[C@@H](O)[C@@H](NCCN)NC(=O)[C@@H]2[C@@H](O)CCN2C(=O)[C@H]([C@H](O)CCN)NC(=O)[C@H]([C@H](O)[C@@H](O)c2ccc(O)cc2)NC(=O)[C@@H]2C[C@@H](O)CN2C(=O)[C@H]([C@@H](C)O)NC1=O | MTT |  | 24 h | > 200 µg/mL |
| O=c1[nH]c(=O)n([C@@H]2O[C@H](COCc3ccccc3)[C@@H](OCc3ccccc3)[C@H](OCc3ccccc3)[C@H]2I)cc1F | MTT | DMEM with 10% FBS | 72 h | > 50 µM |
| COc1ccccc1OCCNCC(O)COc1cccc2[nH]c3ccccc3c12 (centres unmarked) | MTT |  | 72 h | 29.2 µM |
| CC(C)C[C@H](NC(=O)OCc1ccccc1)C(=O)N[C@@H](CC(C)C)C(=O)N[C@@H](CC1CCNC1=O)C(=O)C(=O)NC1CC1 (some centres unmarked) |  |  | 5 (unit not given) | > 250 µM |
| Nc1ccn([C@@H]2O[C@H](COCc3ccccc3)[C@@H](OCc3ccccc3)[C@H](OCc3ccccc3)[C@H]2I)c(=O)n1 | MTT | DMEM with 10% FBS | 72 h | 42.8 µM |
| CCCCCCC#Cc1cncc(-c2nnc(SCc3cc([N+](=O)[O-])cc([N+](=O)[O-])c3)n2C)c1 |  |  | 72 h | > 100 µM |
| CC(C)NCC(O)COc1ccc(COCCOC(C)C)cc1 (racemic) | MTT |  | 72 h | 10 to 30 µM |
| CCCCCOc1ccc(-c2ccc(-c3ccc(C(=O)N[C@H]4C[C@@H](O)[C@@H](O)NC(=O)[C@@H]5[C@@H](O)[C@@H](C)CN5C(=O)[C@H]([C@@H](C)O)NC(=O)[C@H]([C@H](O)[C@@H](O)c5ccc(O)cc5)NC(=O)[C@@H]5C[C@@H](O)CN5C(=O)[C@H]([C@@H](C)O)NC4=O)cc3)cc2)cc1 | MTT |  | 24 h | 42 ± 3 µg/mL |
| CCC(CC)COC(=O)[C@H](C)N[P@](=O)(OC[C@H]1O[C@@](C#N)(c2ccc3c(N)ncnn23)[C@H](O)[C@@H]1O)Oc1ccccc1 |  |  |  | > 100 µM |
| CC(C)C[C@H](NC(=O)OCc1ccccc1)C(=O)N[C@H](C=O)C[C@@H]1CCCNC1=O | cytotoxicity |  |  | > 100 µM |

For quick reference, copied from above:
| Structure (SMILES) | test | test system | setting | CC50 |
| --- | --- | --- | --- | --- |
| CC(C)C[C@H](NC(=O)OCc1ccccc1)C(=O)N[C@H](C=O)C[C@@H]1CCCNC1=O | cytotoxicity |  |  | > 100 µM |
